Results gathered from unrelated publications.
Compare with care: the assays were run in different laboratories.
Effect on: metabolic stability
Matrix: liver microsomes

Compound	species	concentration	pH	microsomal CLint [µL/min/mg]
COc1cc(O)c(-c2cc(-c3cc(-c4c(O)cc(OC)c5c4C[C@@H](C)N[C@@H]5C)c4cc(C)cc(OC)c4c3O)c(O)c3c(OC)cc(C)cc23)c2c1[C@@H](C)N[C@H](C)C2	male CD-1 mouse	1 µM	–	< 11.6
CCc1nc(N)nc(N)c1C#CC(C)c1cc(F)cc(-c2cc(C)nc(C)c2)c1 (racemic)	mouse	–	–	~28
CN1CCN(C(=O)c2ccc(-c3cc4nccc(-c5ccc6cnccc6c5)c4o3)cc2)CC1	mouse	–	–	301
CNC(=O)C1CCN(c2cc(C)c(F)cc2NC(=O)c2ccc(-c3c(C)ccc4[nH]ncc34)c(C)c2)CC1	mouse	2 µM	–	50
O=C(c1cc2ccc(Cl)cc2s1)N(c1ccc(OCCN2CCCC2)cc1)c1ccc(OCCN2CCCC2)cc1	female mouse	–	–	8
[2H]C([2H])([2H])Oc1ccc(-c2cc(C)nc(C)c2)cc1C(C)C#Cc1c(N)nc(N)nc1CC (racemic)	mouse	–	–	~154
NC(=O)c1c(F)ccc(OCc2nc3cc(Cl)cnc3s2)c1F	mouse	10 µM	–	14.5
CCN(c1nc(N[C@H](CC(N)=O)C(=O)NC)nc(N2CCN(c3ccccc3C#N)CC2)n1)C1CCCCC1	mouse	–	–	18
CNC(=O)C1CCN(c2cc(C)c(F)cc2NC(=O)c2ccc(-c3cc(O)ccc3C)c(C)c2)CC1	mouse	2 µM	–	37
CCCCCCCCN(CCC(=O)Nc1ccccc1)C(=O)c1ccccn1	male CD-1 mouse	1 µM	–	144
CCn1cc(C(=O)NCCNCCO)c(=O)c2cc(OCc3ccc(C(F)(F)F)cc3)c(C(F)(F)F)cc21	male CD-1 mouse	1 µM	–	< 11.6
CNC(=O)c1cc(C)ccc1NC(=O)c1ccc(-c2c(C)ccc3[nH]ncc23)c(C)c1	mouse	2 µM	–	36
O=C(NCCNCCO)c1cn(Cc2ccccc2)c2c(Cl)c(OCc3ccc(C(F)(F)F)cc3)c(Cl)cc2c1=O	male CD-1 mouse	1 µM	–	< 11.6
CC1=N[C@H](C)Cc2c(-c3ccc(C)cc3)ccc(O)c21	male CD-1 mouse	1 µM	–	> 250
C[N+]1(CC(=O)OC2CCCCCCCCCCC2)CCCCC1	mouse	–	–	306
CCn1cc(C(=O)NCCNCCO)c(=O)c2cc(OCc3ccc(C(C)(C)C)cc3)c(Cl)cc21	male CD-1 mouse	1 µM	–	< 11.6
CNC(=O)C1CCN(c2ccccc2NC(=O)c2ccc(-c3c(C)ccc4[nH]ncc34)c(C)c2)CC1	mouse	2 µM	–	245
CCc1nc(N)nc(N)c1C#CC(C)c1cc(-c2cc(C)nc(C)c2)ccc1Cl (stereo not drawn)	male CD-1 mouse	0.5 µg/mL	pH 7.4	~25

A few entries again:
Compound	species	concentration	pH	microsomal CLint [µL/min/mg]
CNC(=O)C1CCN(c2cc(C)c(F)cc2NC(=O)c2ccc(-c3c(C)ccc4[nH]ncc34)c(C)c2)CC1	mouse	2 µM	–	50
CNC(=O)C1CCN(c2cc(C)c(F)cc2NC(=O)c2ccc(-c3cc(O)ccc3C)c(C)c2)CC1	mouse	2 µM	–	37
